Published values of several laboratories.
B1: NFR5 276-595 L290E/L291E (Lotus japonicus, UniProt Q70KR1); chain ALNRTASSAETADKEESGVSGYVSKPNVYEIDEIMEATKDFSDECKVGESVYKANIEGRVVAVKKIKEGGANEELKILQKVNHGNLVKLMGVSSGYDGNCFLVYEYAENGSLAEWLFSKSSGTPNSLTWSQRISIAVDVAVGLQYMHEHTYPRIIHRDITTSNILLDSNFKAKIANFAMARTSTNPMMPKIDVFAFGVLLIELLTGRKAMTTKENGEVVMLWKDMWEIFDIEENREERIRKWMDPNLESFYHIDNALSLASLAVNCTADKSLSRPSMAEIVLSLSFLTQQSSNPTLERSLTSSGLDVEDDAHIVTSITAR
B2: pnp 1-763 R105A (Mycobacterium smegmatis, UniProt A0QVQ5); chain MSVVELEDGVYESTAVIDNGSFGTRTIRFETGRLAQQAAGSAVAYLDDETMLLSATTASKNPKDHFDFFPLTVDVEERMYAAGRIPGSFFRREGRPSTDAILTCALIDRPLRPSFVDGLRNEIQVVVTVMSLDPKDLYDVLAINAASMSTQLAGLPFSGPVGGARIALIDGTWVAFPTVEQLERAVFDMVVAGRIVGDGDSADVAIMMVEAEATENVVELVAGGAQAPTEAVVAEGLEAAKPFIKALCAAQQELADRAAKPAGEYPVFPDYEADVYDAVASVATEALAEALTIAGKTERNDRTDEIKVEVLERLAEPYAGREKEIGAAFRSLTKKLVRQRILTDHFRIDGRGITDIRALSAEVAVIPRAHGSALFERGETQILGVTTLDMIKMAQQIDSLGPENTKRYMHHYNFPPYSTGETGRVGSPKRREIGHGALAERALVPVLPSIEEFPYAIRQVSEALGSNGSTSMGSVCASTLALLNAGVPLKAPVAGIAMGLVSDDVDVDGKVEKRYVALTDILGAEDAFGDMDFKVAGTKDFVTALQLDTKLDGIPSQVLAGALSQAKDARLTILDVMAEAIDRPDEMSPYAPRITTIKVPVDKIGEVIGPKGKMINSITEETGAQISIEDDGTVFVGAADGLSAQAAIDKINAIANPQLPKVGERFLGTVVKTTDFGAFVSLLPGRDGLVHISKLGKGKRIAKVEDVVKVGDKLRVEIADIDNRGKISLVLVAEESAESAESAGDKGAEKAEGAAADVTPAEA
B3: ThcOx 1-473 (Cyanothece sp. PCC 7425); chain GGGGMLDLFTLSFSPDLSIASEAEQLTLQSKDDRLILEHPQPGLRTALEQLKQGNLTLAQLTELVSEQDGVEAGITFASELEKLVDLGWICHSVLPLITAIPIAKDYELNVPDSSWQTTAIALSRFAFLHQDLQQLVLESPRSKSKLVILDWRVGAVIAKLAQSDRGFIFATSADSLLADLSLELEELKRLFALLIATQMMDLEPEDETITQWKFHNLLFHHYTRLGRLDNSRKLNLPVFEHRDRYPYVKPVISTQAIPLVKPDLTALATTDMTLTEAIETRRSIREYSDQPITLAQLGEFLYRCARVKAVYTLPEDPMQVGESTTRPYPSGGALYELEIYPLVHQCGDLAAGLYHYQPLSHTLHPVADWTPEVESLVYDAWRATGQQSIPQIVLIITARFGRLFWKYHDIAYSLILKHVGVLYQTFYLVATAMQLAPSAIGAGNTTKFCQIAGLNPDEEASVGEFSLGAAKPQQQS
B4: mpr G120A (Mycobacterium smegmatis, UniProt Q50442); chain MTTPQPYPGMPSQPAPQGVPYPPQQPAKKKRKWPAIVGGVIALMIVGSIFNDDKKDTTPAENTATVAQAPAAAPTKEVPETTATINTPVRDGKFEFVVRSVEPGLSEVGDNPFLNQKAQAQFVIVTLSVQNIGDRPQGFSPSNQKLFDTEGRSFETDTSAQIALDNNDIAVWDNINPGNTVDVSLVYDMPVDAVPASIELHDSMFSGGVTVNLTP
B5: PALB2 DBD 1-195 (Homo sapiens, UniProt Q86YC2); MTSSL spin label position 11; chain MDEPPGKPLSCEEKEKLKEKLAFLKREYSKTLARLQRAQRAEKIKHSIKKTVEEQDALSQQDLSPQLKHSEPKNKIAVYDKLHIKTHLDEETGEKTSITLDVGPESFNPGDGPGGLPIQRTDDTQEHFPHRVSDPSGEQKQKLPSRRKKQQKRTFISQERDAVFGTDSLRLSGKRLKEQEEISSKNPARSPVTEW
B6: pnp 1-763 Q546A/D548A (Mycobacterium smegmatis, UniProt A0QVQ5); chain MSVVELEDGVYESTAVIDNGSFGTRTIRFETGRLAQQAAGSAVAYLDDETMLLSATTASKNPKDHFDFFPLTVDVEERMYAAGRIPGSFFRREGRPSTDAILTCRLIDRPLRPSFVDGLRNEIQVVVTVMSLDPKDLYDVLAINAASMSTQLAGLPFSGPVGGARIALIDGTWVAFPTVEQLERAVFDMVVAGRIVGDGDSADVAIMMVEAEATENVVELVAGGAQAPTEAVVAEGLEAAKPFIKALCAAQQELADRAAKPAGEYPVFPDYEADVYDAVASVATEALAEALTIAGKTERNDRTDEIKVEVLERLAEPYAGREKEIGAAFRSLTKKLVRQRILTDHFRIDGRGITDIRALSAEVAVIPRAHGSALFERGETQILGVTTLDMIKMAQQIDSLGPENTKRYMHHYNFPPYSTGETGRVGSPKRREIGHGALAERALVPVLPSIEEFPYAIRQVSEALGSNGSTSMGSVCASTLALLNAGVPLKAPVAGIAMGLVSDDVDVDGKVEKRYVALTDILGAEDAFGDMDFKVAGTKDFVTALALATKLDGIPSQVLAGALSQAKDARLTILDVMAEAIDRPDEMSPYAPRITTIKVPVDKIGEVIGPKGKMINSITEETGAQISIEDDGTVFVGAADGLSAQAAIDKINAIANPQLPKVGERFLGTVVKTTDFGAFVSLLPGRDGLVHISKLGKGKRIAKVEDVVKVGDKLRVEIADIDNRGKISLVLVAEESAESAESAGDKGAEKAEGAAADVTPAEA
B7: FADD L8G (Homo sapiens, UniProt Q13158); chain MDPFLVLGHSVSSSLSSSELTELKFLCLGRVGKRKLERVQSGLDLFSMLLEQNDLEPGHTELLRELLASLRRHDLLRRVDDFEAGAAAGAAPGEEDLCAAFNVICDNVGKDWRRLARQLKVSDTKIDSIEDRYPRNLTERVRESLRIWKNTEKENATVAHLVGALRSCQMNLVADLVQEVQQARDLQNRSGAMSPMSWNSDASTSEAS
B8: ureR N170D (Escherichia coli, UniProt P32326); chain MEYKFFLSESQMVLKAFYIESAMIAMLTGAKGNIVINGQSIEIESDVTLIIPKYSQVSCNIVCNTVKQPLELHTLSMSAEELQAVFLLLKTLMKSGAPLTSHQPIYHISPPETVRDNFSLLKQCLPLKKQSASQEALLMKQSLYFILMAIYQEGIDILNLFRFNYDEPKDQAITHLITQEPQKKWHLDDVAKALFTTPSTLRRHLNREGVSFRQLLLDVRMGMALNYLTFSNYSVFQISHRCGFGSNAYFCDVFKRKYNMTPSQFRLQSRQSNDPNFITNLSLRSNPIEFDKEIDE
B9: higA 1-104 (Proteus vulgaris, UniProt Q7A224); chain MRQFKVSHPGEMIARDLEDMGVSGRRFAHNIGVTPATVSRLLAGKTALTPSLSIRIAAALGSTPEFWLRLQSNYDLRQLENQIDTSGIVLYGESNEQQQNAQEH
B10: hin (Salmonella enterica, UniProt P03013); chain MATIGYIRVSTIDQNIDLQRNALTSANCDRIFEDRISGKIANRPGLKRALKYVNKGDTLVVWKLDRLGRSVKNLVALISELHERGAHFHSLTDSIDTSSAMGRFFFHVMSALAEMERELIVERTLAGLAAARAQGRLGGRPRAINKHEQEQISRLLEKGHPRQQLAIIFGIGVSTLYRYFPASRIKKRMN
Chain of UniProt P02548 (whole entry, looked up): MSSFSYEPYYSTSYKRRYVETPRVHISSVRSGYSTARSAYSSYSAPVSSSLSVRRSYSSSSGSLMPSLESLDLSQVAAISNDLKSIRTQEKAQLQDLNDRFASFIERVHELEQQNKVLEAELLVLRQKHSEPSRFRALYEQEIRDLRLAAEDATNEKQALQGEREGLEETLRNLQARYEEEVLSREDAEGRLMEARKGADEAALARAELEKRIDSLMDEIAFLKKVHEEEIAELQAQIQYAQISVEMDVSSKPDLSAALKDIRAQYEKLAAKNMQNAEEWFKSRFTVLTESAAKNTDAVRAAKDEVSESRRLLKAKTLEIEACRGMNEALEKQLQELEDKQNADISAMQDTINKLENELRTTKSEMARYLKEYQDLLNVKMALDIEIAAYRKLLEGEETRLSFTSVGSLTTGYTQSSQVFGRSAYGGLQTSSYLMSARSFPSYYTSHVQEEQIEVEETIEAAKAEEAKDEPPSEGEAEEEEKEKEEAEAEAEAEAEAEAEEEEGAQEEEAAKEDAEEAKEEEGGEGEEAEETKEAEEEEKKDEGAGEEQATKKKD

`insulin human` has a fold change of 1.16 (refers to: EPHA5 mRNA; uninfected mouse, brain; i.p., dose not given; baseline: PBS).
Under binding, `B1 (NFR5 276-595 L290E/L291E)` is recorded as “binds” (itself; dynamic light scattering).
`NEFL (Bos taurus, UniProt P02548)` — result for binding: “binds” (itself; electron microscopy).
`B2 (pnp 1-763 R105A)`: binding “binds” (itself; SEC).
`B3 (ThcOx 1-473)`: binding “binds” (itself; crystal structure).
For `B4 (mpr G120A)`, binding read “binds” (itself; cross-linking; added: GTP).
`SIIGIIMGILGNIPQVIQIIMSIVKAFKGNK (Candidalysin mature (Candida albicans))` — result for binding: “binds” (itself; negative stain electron microscopy; peptide).
`B5 (PALB2 DBD 1-195)`: binding “binds” (itself; DEER spectroscopy).
`B6 (pnp 1-763 Q546A/D548A)` — result for binding: “binds” (itself; SEC).
For `B7 (FADD L8G)`, binding read “binds” (itself; SEC).
`B8 (ureR N170D)`: binding “binds” (itself; SEC).
`B9 (higA 1-104)`: binding “binds” (itself; SEC).
`B10 (hin)` — result for binding: “binds” (itself; native gel).
